Results gathered from unrelated publications.
Lines come from different studies, so protocols differ. ± gives the spread as reported.
CHRM1: Muscarinic acetylcholine receptor M1 (CHRM1, Homo sapiens, UniProt P11229)
UniProt P11229, sequence (whole entry, looked up): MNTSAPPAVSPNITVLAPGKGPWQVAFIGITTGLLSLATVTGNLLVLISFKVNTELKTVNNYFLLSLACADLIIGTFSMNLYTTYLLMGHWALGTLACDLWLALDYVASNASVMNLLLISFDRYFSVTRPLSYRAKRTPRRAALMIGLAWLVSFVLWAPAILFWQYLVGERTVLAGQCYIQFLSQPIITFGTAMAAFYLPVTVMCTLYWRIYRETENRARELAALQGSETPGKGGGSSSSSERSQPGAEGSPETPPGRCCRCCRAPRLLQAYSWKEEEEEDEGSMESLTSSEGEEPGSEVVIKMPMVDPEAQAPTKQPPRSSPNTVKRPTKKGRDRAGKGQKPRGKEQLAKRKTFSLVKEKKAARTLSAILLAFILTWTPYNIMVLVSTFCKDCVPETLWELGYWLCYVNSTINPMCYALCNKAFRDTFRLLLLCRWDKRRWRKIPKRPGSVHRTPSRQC
T1: ssRNA, CUG repeat (Homo sapiens); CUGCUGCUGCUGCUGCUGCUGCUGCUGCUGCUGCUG
T2: c-di-GMP riboswitch (Clostridium acetobutylicum); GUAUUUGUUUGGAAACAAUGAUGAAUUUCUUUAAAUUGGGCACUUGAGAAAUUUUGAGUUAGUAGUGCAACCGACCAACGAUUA
UniProt Q8WTS6, sequence (whole entry, looked up): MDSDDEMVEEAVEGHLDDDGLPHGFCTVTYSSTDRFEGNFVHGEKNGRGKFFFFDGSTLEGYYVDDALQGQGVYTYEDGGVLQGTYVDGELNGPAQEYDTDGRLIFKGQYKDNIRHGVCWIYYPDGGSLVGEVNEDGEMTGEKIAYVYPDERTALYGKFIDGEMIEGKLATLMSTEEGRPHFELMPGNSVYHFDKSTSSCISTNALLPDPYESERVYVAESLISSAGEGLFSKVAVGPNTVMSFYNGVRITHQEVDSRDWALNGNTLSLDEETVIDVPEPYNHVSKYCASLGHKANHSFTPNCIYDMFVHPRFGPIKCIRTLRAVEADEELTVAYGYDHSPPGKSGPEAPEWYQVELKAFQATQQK
UniProt Q99952, sequence (whole entry, looked up): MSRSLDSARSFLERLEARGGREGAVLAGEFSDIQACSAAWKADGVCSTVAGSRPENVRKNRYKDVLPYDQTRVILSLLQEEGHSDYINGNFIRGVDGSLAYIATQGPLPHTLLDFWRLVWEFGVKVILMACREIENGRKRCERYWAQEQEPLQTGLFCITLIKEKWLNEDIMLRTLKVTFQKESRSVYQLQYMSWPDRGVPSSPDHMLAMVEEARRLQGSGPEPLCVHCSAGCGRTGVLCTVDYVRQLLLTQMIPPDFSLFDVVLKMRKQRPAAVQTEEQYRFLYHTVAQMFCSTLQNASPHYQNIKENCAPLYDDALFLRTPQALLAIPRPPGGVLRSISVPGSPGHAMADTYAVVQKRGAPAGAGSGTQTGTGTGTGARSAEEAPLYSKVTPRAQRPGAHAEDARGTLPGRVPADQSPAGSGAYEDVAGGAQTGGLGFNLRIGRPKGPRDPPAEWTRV
UniProt E9PV24, sequence (whole entry, looked up): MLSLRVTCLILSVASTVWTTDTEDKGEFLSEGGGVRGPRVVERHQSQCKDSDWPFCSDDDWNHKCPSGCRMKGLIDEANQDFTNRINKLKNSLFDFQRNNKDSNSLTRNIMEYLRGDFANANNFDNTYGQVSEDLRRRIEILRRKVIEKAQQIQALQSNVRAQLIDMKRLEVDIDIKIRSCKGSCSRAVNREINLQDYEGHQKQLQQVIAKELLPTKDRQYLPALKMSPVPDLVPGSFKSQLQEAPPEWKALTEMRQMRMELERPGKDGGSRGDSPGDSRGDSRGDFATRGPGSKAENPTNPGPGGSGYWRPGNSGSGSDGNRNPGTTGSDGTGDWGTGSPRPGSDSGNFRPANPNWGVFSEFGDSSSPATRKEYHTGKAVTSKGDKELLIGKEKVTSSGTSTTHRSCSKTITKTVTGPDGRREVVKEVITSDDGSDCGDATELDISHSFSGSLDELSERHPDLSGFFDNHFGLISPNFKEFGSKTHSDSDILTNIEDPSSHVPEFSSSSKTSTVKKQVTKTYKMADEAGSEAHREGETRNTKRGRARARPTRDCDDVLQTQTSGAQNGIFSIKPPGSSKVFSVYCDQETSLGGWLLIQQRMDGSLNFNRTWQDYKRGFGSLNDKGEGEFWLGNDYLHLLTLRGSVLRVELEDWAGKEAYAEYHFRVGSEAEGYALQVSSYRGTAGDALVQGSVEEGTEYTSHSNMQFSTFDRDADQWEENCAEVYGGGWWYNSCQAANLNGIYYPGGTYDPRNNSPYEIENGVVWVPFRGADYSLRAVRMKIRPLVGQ
UniProt P11588, sequence (whole entry, looked up): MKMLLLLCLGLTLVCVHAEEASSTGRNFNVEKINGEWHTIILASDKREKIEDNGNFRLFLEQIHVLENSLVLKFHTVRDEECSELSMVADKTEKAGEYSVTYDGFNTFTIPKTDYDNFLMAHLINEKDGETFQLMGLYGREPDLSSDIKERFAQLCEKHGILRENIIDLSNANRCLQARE
UniProt Q21974, sequence (whole entry, unmodified, looked up): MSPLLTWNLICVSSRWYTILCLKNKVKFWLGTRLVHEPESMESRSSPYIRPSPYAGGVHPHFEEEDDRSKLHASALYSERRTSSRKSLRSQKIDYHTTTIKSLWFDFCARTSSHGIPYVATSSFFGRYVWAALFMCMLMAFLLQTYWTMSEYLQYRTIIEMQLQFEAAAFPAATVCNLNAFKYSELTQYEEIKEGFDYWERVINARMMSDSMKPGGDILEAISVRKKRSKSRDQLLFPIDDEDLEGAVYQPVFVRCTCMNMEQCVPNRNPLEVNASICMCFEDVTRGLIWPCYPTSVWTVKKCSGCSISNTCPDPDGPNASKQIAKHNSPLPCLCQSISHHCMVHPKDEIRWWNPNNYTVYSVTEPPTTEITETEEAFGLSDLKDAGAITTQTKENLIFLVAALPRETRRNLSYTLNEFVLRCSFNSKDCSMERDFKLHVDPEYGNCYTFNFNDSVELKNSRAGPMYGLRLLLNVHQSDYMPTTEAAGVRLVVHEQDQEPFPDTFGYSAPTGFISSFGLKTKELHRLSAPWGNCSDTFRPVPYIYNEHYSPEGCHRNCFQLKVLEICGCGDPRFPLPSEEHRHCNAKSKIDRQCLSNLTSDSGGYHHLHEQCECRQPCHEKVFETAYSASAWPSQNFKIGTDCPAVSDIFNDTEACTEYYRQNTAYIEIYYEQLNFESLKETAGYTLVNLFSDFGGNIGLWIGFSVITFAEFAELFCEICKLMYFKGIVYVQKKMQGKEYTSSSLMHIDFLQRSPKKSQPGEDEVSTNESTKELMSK
UniProt P21980, sequence (whole entry, looked up): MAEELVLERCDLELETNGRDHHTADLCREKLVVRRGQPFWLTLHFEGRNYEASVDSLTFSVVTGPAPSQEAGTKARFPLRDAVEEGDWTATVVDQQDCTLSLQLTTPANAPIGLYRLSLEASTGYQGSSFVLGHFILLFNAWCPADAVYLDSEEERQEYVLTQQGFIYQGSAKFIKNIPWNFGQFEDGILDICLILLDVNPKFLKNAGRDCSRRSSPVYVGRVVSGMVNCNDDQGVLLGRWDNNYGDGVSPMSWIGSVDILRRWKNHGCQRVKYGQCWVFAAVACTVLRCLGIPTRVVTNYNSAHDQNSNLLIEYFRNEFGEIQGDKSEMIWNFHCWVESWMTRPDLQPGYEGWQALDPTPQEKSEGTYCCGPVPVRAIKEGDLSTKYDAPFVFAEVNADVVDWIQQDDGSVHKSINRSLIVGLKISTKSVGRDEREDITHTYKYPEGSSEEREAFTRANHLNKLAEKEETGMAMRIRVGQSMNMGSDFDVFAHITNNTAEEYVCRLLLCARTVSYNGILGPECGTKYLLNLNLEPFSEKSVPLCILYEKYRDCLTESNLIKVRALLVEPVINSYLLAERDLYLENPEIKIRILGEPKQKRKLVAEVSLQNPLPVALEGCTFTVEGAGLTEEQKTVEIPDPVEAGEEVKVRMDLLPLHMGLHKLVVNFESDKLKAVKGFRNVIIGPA
UniProt P08173, sequence (whole entry, looked up): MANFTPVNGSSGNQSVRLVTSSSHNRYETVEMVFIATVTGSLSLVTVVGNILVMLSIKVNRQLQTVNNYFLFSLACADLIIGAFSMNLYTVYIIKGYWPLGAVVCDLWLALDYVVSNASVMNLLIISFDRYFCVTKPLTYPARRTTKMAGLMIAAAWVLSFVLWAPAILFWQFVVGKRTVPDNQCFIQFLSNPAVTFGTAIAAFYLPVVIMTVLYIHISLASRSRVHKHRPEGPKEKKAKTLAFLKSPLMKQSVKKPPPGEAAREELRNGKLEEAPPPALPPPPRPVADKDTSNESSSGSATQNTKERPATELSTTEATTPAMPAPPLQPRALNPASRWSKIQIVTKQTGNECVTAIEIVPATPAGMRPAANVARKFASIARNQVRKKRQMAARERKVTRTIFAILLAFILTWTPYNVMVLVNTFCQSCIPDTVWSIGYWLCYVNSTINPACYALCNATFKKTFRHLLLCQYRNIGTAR
UniProt Q8K0E8, sequence (whole entry, looked up): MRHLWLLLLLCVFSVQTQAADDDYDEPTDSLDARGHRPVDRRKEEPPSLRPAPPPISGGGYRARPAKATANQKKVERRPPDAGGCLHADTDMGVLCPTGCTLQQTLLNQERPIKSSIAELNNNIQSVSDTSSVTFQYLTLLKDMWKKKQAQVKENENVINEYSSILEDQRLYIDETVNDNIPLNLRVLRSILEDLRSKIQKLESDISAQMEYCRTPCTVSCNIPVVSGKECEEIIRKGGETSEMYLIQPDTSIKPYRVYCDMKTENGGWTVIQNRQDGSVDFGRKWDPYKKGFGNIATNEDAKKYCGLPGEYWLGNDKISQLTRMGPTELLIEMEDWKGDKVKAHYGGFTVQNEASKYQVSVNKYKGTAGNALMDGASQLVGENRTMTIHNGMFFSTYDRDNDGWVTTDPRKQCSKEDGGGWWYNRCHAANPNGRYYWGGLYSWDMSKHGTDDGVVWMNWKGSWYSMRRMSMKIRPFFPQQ

Molecule = NC(=O)c1ccc(COc2ccccc2-c2cc(=O)n(C3CCCCC3O)cn2)cc1 (stereo not shown); target = CHRM1; assay = positive allosteric modulator, IP1 accumulation; system = CHO-M1 cells; setting = 10 µM, 60 min, 37 °C, together with: ACh; scale = relative to: ACh alone, higher = stronger potentiation; endpoint = ΔpEC50 of ACh; result = 2.77 ± 0.49 log units
Molecule = N#Cc1c(N2CCCC2)nc(N)c2c(N)nc(N3CCCC3)cc12; target = T1, ssRNA, CUG repeat (Homo sapiens); assay = fluorescence anisotropy; setting = NaCl 185 mM, Hill plot; endpoint = Kd; result = 125 nM
Molecule = C[C@H](CCCOc1ccc(C(=O)O)cc1)[C@H]1CC[C@H]2[C@@H]3CC=C4C[C@@H](O)CC[C@]4(C)[C@H]3CC[C@]12C; target = GPBAR1 (Homo sapiens, UniProt Q8TDU6); assay = CRE reporter gene, agonist, luciferase reporter; system = HEK293T transfected; setting = 10 µM; scale = relative to: TLCA; endpoint = Emax; result = ~44%
Molecule = COC(=O)[C@H](c1ccccc1Cl)N1CCc2sccc2C1; target = P2Y purinoceptor 12 (P2ry12, Rattus norvegicus, UniProt Q9EPX4); system = rat; setting = oral, 30 mg/kg; endpoint = receptor occupancy; result = 17.3 ± 8.3%
Molecule = Cn1ncc2cc(COc3ccccc3-c3cc(=O)n(C4CCCCC4O)cn3)ccc21 (stereo not shown); target = CHRM1; assay = allosteric agonist, IP1 accumulation; system = CHO-M1 cells; setting = 10 µM, unit not given; scale = relative to: maximum ACh response; endpoint = change in baseline activity; result = 90.6 ± 2.3
Molecule = CCN1CCN(C(C)C(=O)Nc2c(C)csc2C(=O)OC)CC1 (stereo not shown); target = SCN10A (Homo sapiens, UniProt Q9Y5Y9); assay = cell membrane chromatography; scale = higher = stronger binding; endpoint = capacity factor k′; result = 43
Molecule = CCCn1cc(-c2ccc(COc3ccccc3-c3cc(=O)n(C4CCCCC4O)cn3)cc2)cn1 (stereo not shown); target = CHRM1; assay = positive allosteric modulator, IP1 accumulation; system = CHO-M1 cells; setting = 10 µM, 60 min, 37 °C, together with: ACh; scale = relative to: ACh alone, higher = stronger potentiation; endpoint = ΔpEC50 of ACh; result = 2.02 ± 0.3 log units
Molecule = O=[N+]([O-])c1ccc(OP(=O)(O)O)cc1; target = PTPN18 (Homo sapiens, UniProt Q99952); assay = substrate; setting = pH 7.0, 37 °C; endpoint = kcat/Km; result = 2.7 M⁻¹ s⁻¹
Molecule = CCn1cc(-c2ccc(COc3ccccc3-c3cc(=O)n(C4CCCCC4O)cn3)cc2)cn1 (stereo not shown); target = CHRM1; assay = positive allosteric modulator, IP1 accumulation; system = CHO-M1 cells; setting = 1 µM, 60 min, 37 °C, together with: ACh; scale = relative to: ACh alone, higher = stronger potentiation; endpoint = ΔpEC50 of ACh; result = 1.81 ± 0.13 log units
Molecule = GGSHPSRPRAG (99mTc-labelled); target = Fga/Fgb/Fgg (Mus musculus, UniProt E9PV24+Q8K0E8+Q8VCM7); system = peptide, heparinized mouse, carotid thrombosis, injured carotid clot; setting = 3 µCi/g, 2 h; endpoint = uptake; result = 3.4 ± 1.6 %ID/g
Molecule = CCCCCCCO; target = Major urinary protein 1 (Mup1, Mus musculus, UniProt P11588); assay = isothermal titration calorimetry; setting = concentration not given, pH 7.4, 278-308 K; endpoint = binding heat capacity change; result = -663 ± 56 J/(K·mol)
Molecule = COC(=O)c1ccn2c(NCCN3CCOCC3)c(-c3cccn3C)nc2c1; target = CHRM1; assay = agonist; setting = assay interference; endpoint = aggregation concentration; result = > 10 µM
Molecule = CCN(CC)C(=O)c1ccc(COc2ccccc2-c2cc(=O)n(C3CCCCC3O)cn2)cc1 (stereo not shown); target = CHRM1; assay = allosteric agonist, IP1 accumulation; system = CHO-M1 cells; setting = 10 µM, unit not given; scale = relative to: maximum ACh response; endpoint = change in baseline activity; result = 27.9 ± 3.1
Molecule = CC[C@H](C)[C@H](NC(=O)[C@H](Cc1ccc(O)cc1)NC(=O)[C@H](CCCNC(=N)N)NC(=O)[C@H](CCCNC(=N)N)NC(=O)[C@H](CC(C)C)NC(=O)[C@H](CC(=O)O)NC(=O)[C@H](C)NC(=O)[C@H](C)NC(=O)[C@H](Cc1ccc(O)cc1)NC(=O)[C@H](CCC(N)=O)NC(=O)[C@H](C)NC(=O)[C@H](CCSC)NC(=O)[C@H](CCC(N)=O)NC(=O)[C@H](CCC(=O)O)NC(=O)[C@@H]1CCCN1C(=O)[C@@H](NC(=O)[C@H](C)NC(=O)[C@H](CC(N)=O)NC(=O)[C@H](CC(=O)O)NC(=O)CNC(=O)[C@@H]1CCCN1C(=O)[C@H](Cc1ccc(O)cc1)NC(=O)[C@@H](NC(=O)[C@@H]1CCCN1C(=O)[C@H](CCC(=O)O)NC(=O)[C@H](CC(C)C)NC(=O)[C@@H]1CCCN1C(=O)[C@H](C)NC(=O)c1ccc2c(c1)C(=O)OC21c2ccc(O)cc2Oc2cc(O)ccc21)C(C)C)[C@@H](C)O)C(=O)N[C@@H](CC(N)=O)C(=O)N[C@@H](CCSC)C(=O)N[C@@H](CC(C)C)C(=O)N[C@H](C(=O)N[C@@H](CCCNC(=N)N)C(=O)N1CCC[C@H]1C(=O)N[C@@H](CCCNC(=N)N)C(=O)N[C@@H](Cc1ccc(O)cc1)C(N)=O)[C@@H](C)O; target = NPY4R (Homo sapiens, UniProt P50391); assay = radioligand displacement; system = COS-7 transiently expressing; setting = 1 µM, 90 min, room temperature, together with: [3H]-hPP 1 nM; scale = relative to: total binding; endpoint = specific binding; result = 90%
Molecule = COc1ccc(C)c2sc(NC(=O)c3ccc(F)c(F)c3)nc12; target = CHRM4 (Homo sapiens, UniProt P08173); assay = calcium mobilization, positive allosteric modulator; system = CHO expressing hM4 and Gqi5; setting = concentration not given, together with: acetylcholine EC20; endpoint = activity; result = inactive
Molecule = O=c1cc(-c2ccccc2OCc2ccccc2)ncn1C1CCCCC1O (stereo not shown); target = CHRM1; assay = allosteric agonist, IP1 accumulation; system = CHO-M1 cells; setting = 10 µM, unit not given; scale = relative to: maximum ACh response; endpoint = change in baseline activity; result = 54.6 ± 1.9
Molecule = ARTKQTARKSTGG; target = SETD7 (Homo sapiens, UniProt Q8WTS6); assay = peptide methylation, substrate, MALDI-TOF MS; system = peptide; setting = 10 µM, 3 h, pH 8.0, 37 °C, enzyme 500 nM, together with: SAM 30 µM; endpoint = methylation conversion; result = ~82%
Molecule = CC[C@H](C)[C@H](NC(=O)[C@H](CCC(=O)O)NC(=O)[C@@H](NC(=O)[C@H](Cc1ccccc1)NC(=O)[C@H](COP(=O)(O)O)NC(=O)[C@H](CC(=O)O)NC(=O)[C@H](CCC(=O)O)NC(=O)[C@H](CO)NC(=O)[C@H](CO)NC(=O)CNC(=O)[C@H](CO)NC(=O)[C@H](CO)NC(=O)[C@H](CC(N)=O)NC(=O)CCCCCNC(=S)Nc1ccc2c(c1)C(=O)OC21c2ccc(O)cc2Oc2cc(O)ccc21)C(C)C)C(=O)N[C@@H](CCCNC(=N)N)C(=O)N[C@@H](CCSC)C(=O)N[C@@H](C)C(=O)N[C@@H](CCC(=O)O)C(=O)O; target = Microtubule-associated protein 1 light chain 3 beta (Homo sapiens, UniProt Q9GZQ8); assay = binding, surface plasmon resonance; setting = together with: OPTN 169-185 peptide; endpoint = koff; result = 0.377 s⁻¹
Molecule = O=c1cc(-c2ccccc2OCc2ccc(Br)cc2F)ncn1C1CCCCC1O (stereo not shown); target = CHRM1; assay = positive allosteric modulator, IP1 accumulation; system = CHO-M1 cells; setting = 10 µM, 60 min, 37 °C, together with: ACh; scale = relative to: ACh alone, higher = stronger potentiation; endpoint = ΔpEC50 of ACh; result = 1.33 ± 0.12 log units
Molecule = Nc1nc2c(ccn2[C@@H]2O[C@@H]3COP(=O)(O)O[C@H]4[C@@H](O)[C@H](n5cnc6c(=O)[nH]c(N)nc65)O[C@@H]4COP(=O)(O)O[C@H]3[C@H]2O)c(=O)[nH]1; target = T2, c-di-GMP riboswitch (Clostridium acetobutylicum); assay = competitor, competition gel-shift; setting = 4-24 h, pH 6.8, 22 °C, together with: radiolabelled c-di-GMP; endpoint = Kd; result = 33 nM
Molecule = CC1(C)c2cc3cc(-c4ccc(O)cc4O)c(=O)oc3cc2OC1CO (stereo not shown); target = quinone reductase; assay = inducer; system = Hepa1c1c7; endpoint = concentration doubling activity; result = > 20 µM
Molecule = OCCN(CCO)c1nc(N2CCCCC2)c2nc(N(CCO)CCO)nc(N3CCCCC3)c2n1; target = UGT1A1 (Homo sapiens, UniProt P22309); assay = enzyme activity, inhibitor; setting = 20 µM; endpoint = remaining activity; result = 16.9%
Molecule = N=C(N)NC(=O)c1nc(Cl)c(N)nc1N; target = unc-8 (Caenorhabditis elegans, UniProt Q21974, G387E); assay = ion current, two-electrode voltage clamp; system = Xenopus oocytes coexpressing MEC-2; setting = 30 µM, -85 mV; scale = relative to: uninjected oocytes, positive = inhibition; endpoint = current change; result = 0.22 µA
Molecule = NS(=O)(=O)c1ccc(COc2ccccc2-c2cc(=O)n(C3CCCCC3O)cn2)cc1 (stereo not shown); target = CHRM1; assay = allosteric agonist, IP1 accumulation; system = CHO-M1 cells; setting = 10 µM, unit not given; scale = relative to: maximum ACh response; endpoint = change in baseline activity; result = 64.2 ± 2.5
Molecule = C=CC(=O)NCCCC[C@H](NC(=O)OCc1ccccc1)C(=O)NCC(=O)O; target = TGM2 (Homo sapiens, UniProt P21980); setting = pH 6.5; endpoint = kinact; result = 0.021 ± 0.00283 s⁻¹

Repeated from above:
Molecule = O=c1cc(-c2ccccc2OCc2ccccc2)ncn1C1CCCCC1O (stereo not shown); target = CHRM1; assay = allosteric agonist, IP1 accumulation; system = CHO-M1 cells; setting = 10 µM, unit not given; scale = relative to: maximum ACh response; endpoint = change in baseline activity; result = 54.6 ± 1.9
Molecule = Cn1ncc2cc(COc3ccccc3-c3cc(=O)n(C4CCCCC4O)cn3)ccc21 (stereo not shown); target = CHRM1; assay = allosteric agonist, IP1 accumulation; system = CHO-M1 cells; setting = 10 µM, unit not given; scale = relative to: maximum ACh response; endpoint = change in baseline activity; result = 90.6 ± 2.3
